Published values gathered from unrelated publications.
Numbered parts are unrelated; each lists some results of a single study. Values joined by “and” are separate records of one study, mostly repeats; a detail may differ.
Sequence of UniProt P54760 (whole entry, looked up): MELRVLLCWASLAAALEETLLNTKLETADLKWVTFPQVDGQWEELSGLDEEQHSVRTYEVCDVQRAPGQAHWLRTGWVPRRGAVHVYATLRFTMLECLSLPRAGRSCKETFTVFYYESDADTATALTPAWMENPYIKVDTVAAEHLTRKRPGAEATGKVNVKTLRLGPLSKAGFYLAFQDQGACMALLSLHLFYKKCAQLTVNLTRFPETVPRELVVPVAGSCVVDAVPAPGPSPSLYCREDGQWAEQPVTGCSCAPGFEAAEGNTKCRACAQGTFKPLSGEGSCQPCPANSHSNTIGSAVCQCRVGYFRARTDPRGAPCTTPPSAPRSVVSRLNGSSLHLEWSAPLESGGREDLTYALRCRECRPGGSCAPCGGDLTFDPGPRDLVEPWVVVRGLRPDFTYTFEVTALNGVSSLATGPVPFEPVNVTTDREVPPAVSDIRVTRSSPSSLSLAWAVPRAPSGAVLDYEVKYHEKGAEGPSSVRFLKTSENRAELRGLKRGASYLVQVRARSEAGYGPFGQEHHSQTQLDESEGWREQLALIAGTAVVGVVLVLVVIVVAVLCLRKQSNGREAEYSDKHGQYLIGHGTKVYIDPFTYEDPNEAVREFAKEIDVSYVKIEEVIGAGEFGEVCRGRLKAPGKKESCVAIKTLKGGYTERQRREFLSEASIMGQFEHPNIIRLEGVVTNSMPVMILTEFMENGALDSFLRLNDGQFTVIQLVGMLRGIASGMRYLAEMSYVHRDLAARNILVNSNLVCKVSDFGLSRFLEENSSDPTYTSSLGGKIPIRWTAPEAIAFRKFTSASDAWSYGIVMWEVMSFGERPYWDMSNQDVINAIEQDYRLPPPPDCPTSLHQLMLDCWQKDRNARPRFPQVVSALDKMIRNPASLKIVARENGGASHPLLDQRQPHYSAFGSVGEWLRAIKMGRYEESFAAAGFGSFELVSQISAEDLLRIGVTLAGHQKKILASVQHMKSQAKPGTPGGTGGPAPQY
Sequence of UniProt Q15303 (whole entry, looked up): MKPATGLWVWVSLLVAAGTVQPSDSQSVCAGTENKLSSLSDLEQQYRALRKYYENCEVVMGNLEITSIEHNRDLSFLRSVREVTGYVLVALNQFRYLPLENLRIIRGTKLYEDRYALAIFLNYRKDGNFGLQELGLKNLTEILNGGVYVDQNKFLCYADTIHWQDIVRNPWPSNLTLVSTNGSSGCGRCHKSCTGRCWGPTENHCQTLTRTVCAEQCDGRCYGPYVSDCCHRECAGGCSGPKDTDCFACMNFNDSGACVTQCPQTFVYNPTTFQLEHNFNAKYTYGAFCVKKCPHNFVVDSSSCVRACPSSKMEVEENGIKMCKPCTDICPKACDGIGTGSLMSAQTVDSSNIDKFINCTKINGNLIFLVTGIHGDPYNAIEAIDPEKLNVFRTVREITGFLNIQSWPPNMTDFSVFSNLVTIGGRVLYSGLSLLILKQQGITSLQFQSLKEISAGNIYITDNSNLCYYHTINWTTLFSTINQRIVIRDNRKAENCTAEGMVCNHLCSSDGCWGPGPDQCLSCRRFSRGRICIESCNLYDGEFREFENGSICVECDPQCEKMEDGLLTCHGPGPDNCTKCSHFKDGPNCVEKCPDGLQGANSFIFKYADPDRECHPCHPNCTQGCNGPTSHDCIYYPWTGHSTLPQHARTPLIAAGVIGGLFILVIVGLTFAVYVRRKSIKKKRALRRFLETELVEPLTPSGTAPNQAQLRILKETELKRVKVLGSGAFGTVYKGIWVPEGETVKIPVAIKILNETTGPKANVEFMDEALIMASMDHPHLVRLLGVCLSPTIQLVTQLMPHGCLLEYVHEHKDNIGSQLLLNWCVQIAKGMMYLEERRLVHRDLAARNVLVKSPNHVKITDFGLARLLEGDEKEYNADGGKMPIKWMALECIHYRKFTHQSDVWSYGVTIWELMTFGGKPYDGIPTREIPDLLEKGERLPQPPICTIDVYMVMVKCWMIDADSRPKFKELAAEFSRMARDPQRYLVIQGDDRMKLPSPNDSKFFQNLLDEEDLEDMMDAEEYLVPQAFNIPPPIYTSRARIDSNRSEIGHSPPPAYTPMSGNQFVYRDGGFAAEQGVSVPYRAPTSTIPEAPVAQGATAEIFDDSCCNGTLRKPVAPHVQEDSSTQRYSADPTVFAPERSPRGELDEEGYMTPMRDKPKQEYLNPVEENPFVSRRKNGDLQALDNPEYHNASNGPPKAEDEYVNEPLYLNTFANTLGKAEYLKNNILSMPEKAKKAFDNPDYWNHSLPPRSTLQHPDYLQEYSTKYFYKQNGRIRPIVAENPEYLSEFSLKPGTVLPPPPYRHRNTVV
Sequence of UniProt Q15139 (whole entry, looked up): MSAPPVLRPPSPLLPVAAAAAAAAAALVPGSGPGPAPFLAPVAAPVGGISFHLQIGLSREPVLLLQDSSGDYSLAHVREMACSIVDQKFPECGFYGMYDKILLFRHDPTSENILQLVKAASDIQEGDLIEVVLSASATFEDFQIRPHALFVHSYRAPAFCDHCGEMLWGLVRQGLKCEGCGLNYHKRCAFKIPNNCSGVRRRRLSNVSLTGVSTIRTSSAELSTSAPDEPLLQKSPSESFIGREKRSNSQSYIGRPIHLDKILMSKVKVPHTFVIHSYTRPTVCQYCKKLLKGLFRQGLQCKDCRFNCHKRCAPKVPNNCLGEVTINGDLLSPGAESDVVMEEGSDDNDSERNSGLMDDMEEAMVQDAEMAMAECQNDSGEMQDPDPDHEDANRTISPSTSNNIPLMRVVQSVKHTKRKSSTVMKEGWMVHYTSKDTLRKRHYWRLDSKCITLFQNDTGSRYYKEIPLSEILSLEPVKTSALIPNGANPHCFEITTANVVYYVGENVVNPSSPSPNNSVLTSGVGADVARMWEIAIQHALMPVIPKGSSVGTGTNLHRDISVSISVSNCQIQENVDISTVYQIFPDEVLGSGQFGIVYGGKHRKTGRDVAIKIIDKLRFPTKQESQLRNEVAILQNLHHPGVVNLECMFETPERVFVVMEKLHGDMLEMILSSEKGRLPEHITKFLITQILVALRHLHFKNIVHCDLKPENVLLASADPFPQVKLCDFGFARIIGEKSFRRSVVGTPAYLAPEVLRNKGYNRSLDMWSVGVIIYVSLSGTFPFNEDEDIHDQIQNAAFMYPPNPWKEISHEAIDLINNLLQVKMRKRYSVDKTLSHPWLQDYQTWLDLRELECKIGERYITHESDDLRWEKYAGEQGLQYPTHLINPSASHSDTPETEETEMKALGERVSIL
Sequence of UniProt O43283 (whole entry, looked up): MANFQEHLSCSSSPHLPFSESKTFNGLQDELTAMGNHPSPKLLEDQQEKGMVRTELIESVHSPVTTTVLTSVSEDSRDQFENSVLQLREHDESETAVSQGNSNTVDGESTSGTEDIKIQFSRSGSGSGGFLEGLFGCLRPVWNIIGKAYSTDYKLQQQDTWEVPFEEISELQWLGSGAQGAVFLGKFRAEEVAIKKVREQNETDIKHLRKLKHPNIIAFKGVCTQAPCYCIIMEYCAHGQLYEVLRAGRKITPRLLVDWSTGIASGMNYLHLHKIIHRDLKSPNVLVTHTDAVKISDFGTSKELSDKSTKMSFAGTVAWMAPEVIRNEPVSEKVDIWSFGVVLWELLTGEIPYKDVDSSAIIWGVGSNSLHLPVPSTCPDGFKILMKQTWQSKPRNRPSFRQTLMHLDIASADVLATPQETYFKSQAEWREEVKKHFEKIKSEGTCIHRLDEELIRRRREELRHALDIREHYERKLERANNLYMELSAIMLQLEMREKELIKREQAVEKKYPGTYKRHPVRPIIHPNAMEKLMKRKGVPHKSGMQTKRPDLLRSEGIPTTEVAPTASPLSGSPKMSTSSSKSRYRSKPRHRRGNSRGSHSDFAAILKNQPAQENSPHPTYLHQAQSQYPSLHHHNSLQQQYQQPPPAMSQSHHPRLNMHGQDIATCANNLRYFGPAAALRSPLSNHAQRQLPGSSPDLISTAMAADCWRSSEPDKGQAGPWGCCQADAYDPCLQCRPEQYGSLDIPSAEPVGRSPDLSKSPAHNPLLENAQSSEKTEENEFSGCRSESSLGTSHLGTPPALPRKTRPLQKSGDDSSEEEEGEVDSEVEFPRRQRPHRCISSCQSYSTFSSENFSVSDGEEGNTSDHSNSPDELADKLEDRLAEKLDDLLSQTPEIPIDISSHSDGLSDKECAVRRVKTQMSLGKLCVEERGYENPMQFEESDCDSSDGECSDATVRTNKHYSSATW
Sequence of UniProt Q15349 (whole entry, looked up): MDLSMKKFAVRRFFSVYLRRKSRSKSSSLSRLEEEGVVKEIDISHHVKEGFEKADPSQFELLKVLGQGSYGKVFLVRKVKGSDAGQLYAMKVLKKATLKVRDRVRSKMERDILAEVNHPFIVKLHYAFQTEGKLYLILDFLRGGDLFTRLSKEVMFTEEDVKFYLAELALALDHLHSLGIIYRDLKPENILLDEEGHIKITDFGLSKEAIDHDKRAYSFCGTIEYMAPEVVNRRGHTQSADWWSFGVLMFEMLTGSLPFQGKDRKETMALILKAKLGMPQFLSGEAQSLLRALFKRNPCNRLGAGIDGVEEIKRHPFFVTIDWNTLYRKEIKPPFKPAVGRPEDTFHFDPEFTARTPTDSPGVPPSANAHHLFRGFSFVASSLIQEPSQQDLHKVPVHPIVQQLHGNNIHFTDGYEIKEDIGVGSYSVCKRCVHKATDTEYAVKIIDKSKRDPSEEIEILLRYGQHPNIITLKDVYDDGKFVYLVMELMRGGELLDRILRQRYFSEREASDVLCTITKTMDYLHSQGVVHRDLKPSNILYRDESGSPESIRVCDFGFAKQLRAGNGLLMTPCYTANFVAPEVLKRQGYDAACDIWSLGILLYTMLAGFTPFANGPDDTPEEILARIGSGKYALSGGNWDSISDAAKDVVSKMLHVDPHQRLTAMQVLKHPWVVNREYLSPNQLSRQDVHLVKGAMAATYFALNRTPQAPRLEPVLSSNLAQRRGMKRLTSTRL

Sample 1
Target: TAR DNA-binding protein 43, full length, His tag (TARDBP, Homo sapiens, UniProt Q13148, residues 1-414)
Method: RNA Bind-n-Seq
Molecule type: RNA
Medium: in vitro
Tested at: 20 nM
Setting: 6-mer, flanks averaged, single round
Together with: 150 mM LiCl
Reference: input library
Reading: higher = stronger binding
Quantity: 6-mer enrichment (R)
CGGUUA: 0.919
UUACUG: 0.938
UCGAGA: 0.882
ACAGAU: 0.808
GGUUGA: 1.18
CAAAGG: 0.865
UAGGUC: 0.89
GGAAAC: 0.86

Sample 2
Structure (SMILES): CNC(=O)c1ccc(Nc2ncc(C(F)(F)F)c(NCc3nccnc3N(C)S(C)(=O)=O)n2)cc1
Tested at: 0.1 µM
Quantity: remaining binding
Serine/threonine-protein kinase MARK1 (MARK1, Homo sapiens, UniProt Q9P0L2); cell-free assay, competition with immobilised ligand: 100%
Receptor tyrosine-protein kinase erbB-4 (ERBB4, Homo sapiens, UniProt Q15303); cell-free assay, competition with immobilised ligand: 84%
Ribosomal protein S6 kinase alpha-2, N-terminal kinase domain (RPS6KA2, Homo sapiens, UniProt Q15349); cell-free assay, competition with immobilised ligand: 77%
Phosphatidylinositol 4-phosphate 3-kinase C2 domain-containing subunit beta (PIK3C2B, Homo sapiens, UniProt O00750); cell-free assay, competition with immobilised ligand: 87%
Epidermal growth factor receptor (EGFR, Homo sapiens, UniProt P00533, del752-759); cell-free assay, competition with immobilised ligand: 85%
Tyrosine-protein kinase ABL1, phosphorylated (ABL1, Homo sapiens, UniProt P00519, Q252H); cell-free assay, competition with immobilised ligand: 100%
Serine/threonine-protein kinase D1 (PRKD1, Homo sapiens, UniProt Q15139); cell-free assay, competition with immobilised ligand: 100%
Serine/threonine-protein kinase PAK 5 (PAK5, Homo sapiens, UniProt Q9P286); cell-free assay, competition with immobilised ligand: 62%
Ephrin type-B receptor 4 (EPHB4, Homo sapiens, UniProt P54760); cell-free assay, competition with immobilised ligand: 94%
Cyclin-dependent kinase 19 (CDK19, Homo sapiens, UniProt Q9BWU1); competition binding: 100%
Ephrin type-A receptor 2 (EPHA2, Homo sapiens, UniProt P29317); cell-free assay, competition with immobilised ligand: 86%
Epidermal growth factor receptor (EGFR, Homo sapiens, UniProt P00533, del746-750); cell-free assay, competition with immobilised ligand: 91%
Mitogen-activated protein kinase kinase kinase 13 (MAP3K13, Homo sapiens, UniProt O43283); cell-free assay, competition with immobilised ligand: 98%
Ephrin type-B receptor 2 (EPHB2, Homo sapiens, UniProt P29323); cell-free assay, competition with immobilised ligand: 76%
Mitogen-activated protein kinase kinase kinase 9 (MAP3K9, Homo sapiens, UniProt P80192); cell-free assay, competition with immobilised ligand: 44%

Sample 3
Structure (SMILES): c1ccc(Oc2ccc(Nc3c4c(nc5ccccc35)CCC4)cc2)cc1
Quantity: cytotoxicity
HepG2; resazurin; 0.0166 µM, 48 h: 4% and 3%
PMA-differentiated THP-1 macrophages; 0.02 µM, 64 h: 9% and 10%
J774.1; resazurin; 0.0166 µM: -8% and -5%

Sample 4
SMILES: CC(C)n1cnc(-c2ccc(F)cc2)c1-c1ncc(C(=O)Nc2ccc(N3CCN(C)CC3)cc2)[nH]1
Method: phase 2a trial
Host: idiopathic pulmonary fibrosis patients
Quantity: patients with abdominal distension
30 mg once daily, adverse event grade 3: 0%
dose not given, adverse event grade 3, all dose arms pooled: 0%
dose not given, adverse event grade 2, all dose arms pooled: 0%

Sample 5
Cell line: mouse MPNST tumor cells
Method: high-content immunofluorescence imaging
Measured: nuclear SOX9
Tested at: 10 µM
Time: 12 h
Setting: mean of 2 replicates
Reference: DMSO control
Reading: higher = more nuclear SOX9
Quantity: nuclear SOX9 intensity
O=C(c1ccc(OCCN2CCCCC2)cc1)c1c(-c2ccc(O)cc2)sc2cc(O)ccc12: 221 % of DMSO and 211 % of DMSO
COc1cc(C(=O)N(CCC2CCCN2C)C/C(C)=C/c2ccccc2F)cc(OC)c1OC (stereo not drawn): 102 % of DMSO
COc1nccnc1NS(=O)(=O)c1cccc(Cl)c1Cl: 91 % of DMSO

Further values, each from its own experiment
Cc1noc(-c2cccn3c(=O)n(Cc4c(C)noc4C)nc23)n1 — remaining compound (human, microsomes or S9; 2 µM, 0.5 h): 62.3%

Excerpt of the above (sample 1):
UUACUG: 0.938
UCGAGA: 0.882
ACAGAU: 0.808
GGUUGA: 1.18
CAAAGG: 0.865
